Measurements collected from several papers.
Each numbered part is a random draw from the data of one study; scales do not carry over between parts.

Series 1 — method: protein-binding microarray; molecule type: double-stranded DNA, one strand shown; matrix: in vitro; concentration: 2540 nM top; notes: 60-bp whole probe; together with: salmon DNA 0.4 mg/ml; relative to: random background probes; direction: higher = stronger binding; shared flanks, not repeated: GCCTAGCAC … GTCTTGATTCGCTTGACGCTGCTG
Target: Interferon regulatory factor 3, full length, phosphomimetic (IRF3, Homo sapiens, UniProt Q14653, residues 1-427, S386D/S396D/S398D/S402D/T404D/S405D)
Target sequence (chain): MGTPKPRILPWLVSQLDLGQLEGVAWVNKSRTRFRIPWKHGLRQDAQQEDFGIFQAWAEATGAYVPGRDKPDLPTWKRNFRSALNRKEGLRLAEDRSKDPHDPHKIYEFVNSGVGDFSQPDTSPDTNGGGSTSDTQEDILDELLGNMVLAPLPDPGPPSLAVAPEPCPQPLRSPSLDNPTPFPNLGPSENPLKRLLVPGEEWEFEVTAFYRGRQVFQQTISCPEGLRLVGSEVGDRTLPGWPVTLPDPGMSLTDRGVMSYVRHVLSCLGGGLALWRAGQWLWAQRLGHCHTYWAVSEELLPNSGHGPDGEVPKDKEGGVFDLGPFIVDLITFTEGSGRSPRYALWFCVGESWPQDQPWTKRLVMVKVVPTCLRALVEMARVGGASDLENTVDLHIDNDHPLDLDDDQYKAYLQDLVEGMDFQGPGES
`TCACCTCTAGGAATGTAACTGTGCTAG`: “fitted relative affinity” 0.216 z-score.
`TTAGGTCTCGGTTTCAGTTAGTGCTAG`: “fitted relative affinity” 3.12 z-score.
For `TTAGTTTTCGACACTGGGTTAGTGCTA`, “fitted relative affinity” read 1.36 z-score.
`TTAGATCTCAGAATGGATTAGTGCTAG`: “fitted relative affinity” 0.218 z-score.
`TTCTCTATTGCTTTCTCTTTGTGCTAG` — result for “fitted relative affinity”: 1.91 z-score.
For `TTAGGACTCGGTCTCGGTTAGTGCTAG`, “fitted relative affinity” read 0.186 z-score.
Under “fitted relative affinity”, `GTAGATTTCAGTTCCGATTAGTGCTAG` is recorded as 3.94 z-score.
Under “fitted relative affinity”, `ATTTGTCCCTATTTAAGAGAGTGCTAG` is recorded as 2.48 z-score.
`CTCCCTTGAGGTTTTCTCTGGGTGCTA` — result for “fitted relative affinity”: -0.312 z-score.
For `TCAAGTTCAGTTCTCTAACTGTGCTAG`, “fitted relative affinity” read 1.42 z-score.
`GACGGTCTCTTTATCCTGACGTGCTAG`: “fitted relative affinity” 1.03 z-score.
Under “fitted relative affinity”, `TCATCTTTGCTCATTTTTACTGTGCTA` is recorded as 1.11 z-score.
`TTATATTTCAGTATCGATTAGTGCTAG` — result for “fitted relative affinity”: 2.31 z-score.
For `GCCGGTCTCGGTTTCGGGACGTGCTAG`, “fitted relative affinity” read 4.77 z-score.
For `TTAGGACTGCTTAACCTTTAGTGCTAG`, “fitted relative affinity” read -0.346 z-score.
`TTAGGACTGGACTATCGGTGAGTGCTA`: “fitted relative affinity” -0.545 z-score.
`GACGGACTGGACTTTCGGGAGGTGCTA`: “fitted relative affinity” -0.154 z-score.
`TTAGATTTCGGGTTTCGATAAGTGCTA` — result for “fitted relative affinity”: 3.16 z-score.
`TTAGGTTTCGGTTCCGGTTTGTGCTAG` — result for “fitted relative affinity”: 11.5 z-score.
`GACGTTCTCGGTCTCGGGACGTGCTAG` — result for “fitted relative affinity”: 1.46 z-score.
Under “fitted relative affinity”, `ATGTCCTCCTCTCTCTTTCCGTGCTAG` is recorded as 1.4 z-score.
Under “fitted relative affinity”, `GACCATTTCAGTCTCGAGACGTGCTAG` is recorded as 2.68 z-score.
`GACGGTCTCGGTATCTGGACGTGCTAG` — result for “fitted relative affinity”: 1.1 z-score.

Series 2 — method: universal PBM; molecule type: double-stranded DNA, one strand shown; matrix: in vitro; concentration: not given; direction: higher = stronger binding
Target: Sal-like protein 4, full length isoform B (SALL4, Homo sapiens, UniProt Q9UJQ4-2, residues 1-616)
Notes: 8-mer, flanks averaged, mean of replicates
Target sequence (chain): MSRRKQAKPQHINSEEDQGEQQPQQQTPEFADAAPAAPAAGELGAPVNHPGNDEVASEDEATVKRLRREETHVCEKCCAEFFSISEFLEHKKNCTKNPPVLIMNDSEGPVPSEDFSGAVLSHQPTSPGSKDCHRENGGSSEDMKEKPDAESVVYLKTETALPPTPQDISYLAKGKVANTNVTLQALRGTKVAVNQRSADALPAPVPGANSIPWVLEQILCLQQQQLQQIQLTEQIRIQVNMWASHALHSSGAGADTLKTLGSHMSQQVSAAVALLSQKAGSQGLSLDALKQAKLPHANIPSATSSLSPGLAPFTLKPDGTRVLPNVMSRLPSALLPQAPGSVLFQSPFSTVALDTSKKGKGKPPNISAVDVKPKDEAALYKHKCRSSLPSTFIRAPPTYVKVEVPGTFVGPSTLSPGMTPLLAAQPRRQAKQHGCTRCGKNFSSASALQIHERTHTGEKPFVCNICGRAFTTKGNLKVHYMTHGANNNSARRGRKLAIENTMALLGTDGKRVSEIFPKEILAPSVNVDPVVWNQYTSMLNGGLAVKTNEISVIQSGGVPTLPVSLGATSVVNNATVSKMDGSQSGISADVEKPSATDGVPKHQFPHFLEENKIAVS
With `AACGCAAT` the E-score was 0.203.
`AGTAACCA` has an E-score of -0.0819.
For `CAGTCTAA`, the E-score was 0.143.
`GTCTGCAA` gave an E-score of -0.157.
With `CCTGATCG` the E-score was -0.22.
For `GAGGCTGA`, the E-score was -0.131.
For `AGTGAACT`, the E-score was -0.0399.
`ATTTACAG` has an E-score of 0.216.
For `TCTAGGCA`, the E-score was -0.0494.
With `GATTATAA` the E-score was 0.331.
The E-score of `ATTGGCTA` is reported as 0.11.
The E-score of `GATTGGAC` is reported as -0.0275.
`TAGGATAA` has an E-score of 0.154.
The E-score of `AAGTTGAG` is reported as 0.0105.
The E-score of `ACGCCACC` is reported as -0.226.
The E-score of `CCCCGCCC` is reported as -0.105.

Series 3 — method: RNA Bind-n-Seq; molecule type: RNA; matrix: in vitro; concentration: 365 nM; relative to: no-protein control; direction: higher = stronger binding
Target: RNA binding protein fox-1 homolog 2, RRM domain, GST-SBP tag (RBFOX2, Homo sapiens, UniProt O43251-10, residues 100-194)
Notes: natural RNA segment, single round, ends assumed
Shared flanks, not repeated: GGGAGUUCUACAGUCCGACGAUC … UGGAAUUCUCGGGUGCCAA
Residues (chain): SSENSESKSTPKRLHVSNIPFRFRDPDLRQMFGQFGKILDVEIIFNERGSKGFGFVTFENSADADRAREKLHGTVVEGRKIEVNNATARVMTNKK
Under “RBNS enrichment (R)”, `AUUUUUGUUUACAAUAUUAAAAUGUAUGUUAGCAAAUGGGUGGAUUUUCAAAUAAAAUGCAGCUUCCACAAAACAUGUUACGGUGUUCUGGUUUGAGGUGUGUUCUCCUU` is recorded as 0.296.
`UGUGCAGGGUUAAACUCCUGAAGUAACUUGUGAGGACUUCAGUGCUUGCUGGUGUCCUGGGCAGCACCAUGAAUGCCUUUACCAAGACAUGCCAAGUUGGAUCCCCCGAA`: “RBNS enrichment (R)” 1.21.
`UGUUUUGACUUGAAUAAAGUACUACAUCAGUGUGGAAAAAAAUUCUGAUACAUUAGCAGCUAUGUAAAUGACCUAAUUGAUAGCAGGUGUAAUAAGACUAUCGUCUUCCU`: “RBNS enrichment (R)” 0.317.
`GUAUAGCCUUCCACAUAGAUCUGCAUCAUGUAAGCUCAGGUUACUAUGAUUCCCUUCAGUUUCCUUCCAGAAUAUCCAACUUAUAUAACACUUCAAAAAUUAUCUUCAAU`: “RBNS enrichment (R)” 0.359.
For `CUACCACCCCUAGUAAGCAGGGUAGGAGCAACAGAUUCAAGAUGAGAGAAGUAUGUGUUUGUUUUUAACAUGAUGCUAGUUAGAGAACAGUCUUAUCAGCAAAUUACUCU`, “RBNS enrichment (R)” read 0.57.
`UGGGCUACUUGUGACUAGACUUUUAAACUUUGCUCUUUCAAGCAGAAGCCUGGUUUCUGGGAGAACACUGCACAGCGAUUUCUUUCCCAGGAUUUACACAACUUUAAAGG`: “RBNS enrichment (R)” 0.222.
`CUGACGUUUCUAUUAAUGAGUUAUCAGAAGUUGCAACAUCUCUCCAGCACUAAUGUGUUUUGUCCACUUCAAACGCUGUUCUAAUUGCCAACCGGCUGCUCUAGGCUCCU` — result for “RBNS enrichment (R)”: 0.37.
For `GGUGCCCCAUCAUUGGCCACCCCAGCCAUAGGUGUGUGCUGUUGGUGGGAAAUGGUCUCCUUCCUCAGCGUUGUGUUUGGGUUACUGGUGAGGCCAGCUCACAGAGUGAC`, “RBNS enrichment (R)” read 0.333.
`AAAAACAGAACCAGCAUACCCCCAGGACCCAGCUGUGCUGGGAGCCUCAGUGUCCUCACCUGUCAAGUGGGCAAGCCAUGCUGAUCCGCAGGGUAAGUUACUGGGAGUUU`: “RBNS enrichment (R)” 0.31.
`ACUUCCAACCAGCCGCUGUGAGGAUUUAGUGAGCUAACGCAUGUAAGCAUUUAGCAAGGUGCCUGGCACAUAGUAAGCACUCAAUAAAUGGUAGUUUUUUUGUUCUUUUA` — result for “RBNS enrichment (R)”: 13.4.
`CGGCACUUUCUUAAUUAUGAGUAUUGAAAGGUGCUGUUUUCAGUCUCCACAUGUCUGCUGACAAGUUAAAGAAUCUAGCAUAUCGCAUUUGGUUUUACUUGUUGAUUUUG` — result for “RBNS enrichment (R)”: 0.777.
`CCAGCUAUAACCACAAUCCUUGCCUGAGGCCUUUUGAUUUCUGUUUGGCUGUGCCUGGGUAGGGGCACUGUGCCUGCUUCUGAUUUUGAAAGAAGCAUCCUGGAAACCAU` — result for “RBNS enrichment (R)”: 1.5.

Series 4 — method: RNA Bind-n-Seq; molecule type: RNA; matrix: in vitro; concentration: 1 µM; notes: whole 134-nt RNA, ends assumed; together with: 150 mM KCl; relative to: input library; direction: higher = stronger binding
Target: Ras GTPase-activating protein-binding protein 1, C-terminal RGG region (G3BP1, Homo sapiens, UniProt Q13283)
UniProt Q13283, sequence (whole entry, looked up): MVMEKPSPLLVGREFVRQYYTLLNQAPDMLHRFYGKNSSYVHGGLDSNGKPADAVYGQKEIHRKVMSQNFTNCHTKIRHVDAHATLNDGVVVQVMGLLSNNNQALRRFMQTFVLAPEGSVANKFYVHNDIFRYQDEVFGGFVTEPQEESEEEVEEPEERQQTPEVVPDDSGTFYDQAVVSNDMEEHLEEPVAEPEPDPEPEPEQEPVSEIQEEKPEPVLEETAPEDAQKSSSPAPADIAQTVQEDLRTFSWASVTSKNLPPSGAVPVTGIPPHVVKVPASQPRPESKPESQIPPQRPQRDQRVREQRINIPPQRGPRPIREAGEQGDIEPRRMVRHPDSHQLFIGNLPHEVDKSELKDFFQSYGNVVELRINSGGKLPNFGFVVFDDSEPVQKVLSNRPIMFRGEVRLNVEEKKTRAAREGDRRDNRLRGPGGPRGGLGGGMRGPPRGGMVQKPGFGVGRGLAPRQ
Shared flanks, not repeated: GGGAGUUCUACAGUCCGACGAUC … UGGAAUUCUCGGGUGUCAAGG
`CUCAAGUCCUGUGCUACACAUCGUAUGUACCGAAUCGGGGCCGGCCGGGCCGGAAAGUAUUAUGUUACGCCGUUCGGAUCUGCACUUCCA` gave a log2 enrichment of -1.04.
`AAGUCCUGUGCUACACAUCGUAUGUACCGAAUCGGGAGGGAAAGGGAAAAAAAGGGAAAGUAUUAUGUUACGCCGUUCGGAUCUGCACUU` gave a log2 enrichment of 0.0771.
With `UCCUGUGCUACACAUCGUAUGUACCGAAUCGGCCCCCGGGGCCCCCGGGGCCCCCGGGGAAAGUAUUAUGUUACGCCGUUCGGAUCUGCA` the log2 enrichment was -1.95.
For `UAACUUUAGAGGAGGAUCUGAUGGAUAUGGCAGUGGACGUGGAUUUGGGGAUGGCUAUAAUGGGUAUGGAGGAGGACCCGGAGGUGGCAA`, the log2 enrichment was -1.06.
The log2 enrichment of `UCCUGUGCUACACAUCGUAUGUACCGAAUCGGAAAAAAAGGUUUUUUUGGAAAAAAAGGAAAGUAUUAUGUUACGCCGUUCGGAUCUGCA` is reported as -1.58.
For `GUCCUGUGCUACACAUCGUAUGUACCGAAUCGGGAAAAAGGGAAAAAAAGGGUUUGGGAAAGUAUUAUGUUACGCCGUUCGGAUCUGCAC`, the log2 enrichment was -0.573.
For `AGUCCUGUGCUACACAUCGUAUGUACCGAAUCGGGGUUUGGGGUUUUUGGGGAGGGGAAAGUAUUAUGUUACGCCGUUCGGAUCUGCACU`, the log2 enrichment was 2.41.
The log2 enrichment of `CCUGUGCUACACAUCGUAUGUACCGAAUCAAAUUUUUUUAAAUUUUUAAAUUUUUUUAAAAAAGUAUUAUGUUACGCCGUUCGGAUCUGC` is reported as -2.39.
`CCUGUGCUACACAUCGUAUGUACCGAAUCGGGGAGGGGAAAAAAAGGGGUUUUUUUGGGGAAAGUAUUAUGUUACGCCGUUCGGAUCUGC` has a log2 enrichment of 0.504.
The log2 enrichment of `UUUGGUUAUGAACAGGAUUCGGAUUCACGUCUUGCCAACCAAUCGGGGGAGGAUCACUCCAGUGCCCAGGUCUCAGGAACCUCUGUCUUG` is reported as -0.352.
The log2 enrichment of `CUGUGCUACACAUCGUAUGUACCGAAUCAAAUUUUUUUAAAUUUUUUUAAAUUUUUUUAAAAAAGUAUUAUGUUACGCCGUUCGGAUCUG` is reported as -2.72.
`UCCUGUGCUACACAUCGUAUGUACCGAAUCGGGGAAAAAGGGGAAAAAAAGGGGAGGGGAAAGUAUUAUGUUACGCCGUUCGGAUCUGCA` gave a log2 enrichment of 1.58.
`GUCCUGUGCUACACAUCGUAUGUACCGAAUCGGUUUUUUGGUUUUUUGGUUUUUUGGGAAAGUAUUAUGUUACGCCGUUCGGAUCUGCAC` has a log2 enrichment of -1.5.
The log2 enrichment of `CUCAAGUCCUGUGCUACACAUCGUAUGUACCGAAUCGGGAAAGGAAAGGAAAGGAAAGUAUUAUGUUACGCCGUUCGGAUCUGCACUUCC` is reported as -1.51.

A few entries again (series 4):
`GUCCUGUGCUACACAUCGUAUGUACCGAAUCGGUUUUUUGGUUUUUUGGUUUUUUGGGAAAGUAUUAUGUUACGCCGUUCGGAUCUGCAC` has a log2 enrichment of -1.5.
The log2 enrichment of `UCCUGUGCUACACAUCGUAUGUACCGAAUCGGAAAAAAAGGUUUUUUUGGAAAAAAAGGAAAGUAUUAUGUUACGCCGUUCGGAUCUGCA` is reported as -1.58.
`UCCUGUGCUACACAUCGUAUGUACCGAAUCGGGGAAAAAGGGGAAAAAAAGGGGAGGGGAAAGUAUUAUGUUACGCCGUUCGGAUCUGCA` gave a log2 enrichment of 1.58.
